Assay results of several laboratories.
Target: BDNF/NT-3 growth factors receptor (NTRK2, Homo sapiens, UniProt Q16620)

| read-out | action | technique | concentration | with | inhibition | SMILES |
| --- | --- | --- | --- | --- | --- | --- |
| enzyme activity | inhibitor |  | 10 µM |  | 50% | NC(=O)[C@@H](O)C[C@H]1CCc2sc3ncnc(O[C@H]4CC[C@H](N5CCOCC5)CC4)c3c21 |
| enzyme activity | inhibitor | FRET | 1 µM |  | 14.7% | O=C(Nc1ccc(C(=O)Nc2ccc3[nH]ncc3c2)c(F)c1)Nc1cc(C(F)(F)F)ccc1F |
| enzyme activity | inhibitor |  | 1 µM |  | 5.3% | COc1ccc(S(=O)(=O)N2CCc3ccccc3C2)cc1N1CCN(C(=O)c2ccc(F)cc2C(F)(F)F)CC1 |
| cell-free assay |  |  | 1 µM |  | 1.8% | C=CC(=O)N1Cc2nc(-c3cc(-c4cc(Cl)cnc4Cl)c(F)cc3F)n(-c3ccncn3)c2C1 |
| enzyme activity | inhibitor |  | 0.1 µM |  | 6% | C=CC(=O)Nc1cccc(-c2cnc3[nH]cc(C(=O)NC(C)(C)C)c3n2)c1 |
| binding |  | competition with immobilised ligand | 0.2 µM |  | 5.38% | COc1ccc(O)cc1-c1c[nH]c2ncc(-c3cncc(C(=O)N(C)C)c3)cc12 |
| enzyme activity | inhibitor | FRET | 1 µM |  | 23.1% | O=C(Nc1ccc(C(=O)Nc2ccc3[nH]ncc3c2)c(Br)c1)Nc1cc(C(F)(F)F)ccc1F |
| enzyme activity | inhibitor |  | 0.1 µM |  | 0% | CN1CCN(Cc2ccc(-c3ccc(CO[C@H]4CCC[C@@H]4NC(=O)c4cc(-c5cnn(C)c5)cnc4N)cc3)cc2)CC1 |
| enzyme activity | inhibitor |  | 10 µM |  | 25% | NC(=O)C[C@H]1CCc2sc3ncnc(O[C@H]4CC[C@H](N5CCOCC5)CC4)c3c21 |
| enzyme activity | inhibitor | FRET | 1 µM |  | 11.3% | O=C(Nc1ccc(F)c(C(=O)Nc2ccc3[nH]ncc3c2)c1)Nc1cc(C(F)(F)F)ccc1F |
| enzyme activity | inhibitor |  | 1 µM |  | 10% | CN1CC[C@@H](COc2cnc(C#N)cc2-c2ccn3nc(NC(=O)C4CC4)cc3c2)C1 |
| enzyme activity | inhibitor | FRET | 1 µM |  | 14.5% | O=C(Nc1ccc(C(=O)Nc2ccc3[nH]ncc3c2)cc1F)Nc1cc(C(F)(F)F)ccc1F |
| cell-free assay |  |  | 1 µM |  | 0% | Cc1cccc(O[C@H]2CCC[C@@H](C(C)CNCc3ccncc3)C2)c1 (relative stereo) |
| enzyme activity | inhibitor | FRET | 1 µM |  | 26% | O=C(CN1CCN(C(=O)c2ccc(C(F)(F)F)cc2)CC1)Nc1cccc(C(=O)Nc2ccc3[nH]ncc3c2)c1 |
| kinase activity |  |  | 0.1 µM | ATP at Km | -6.5% | CCn1cc(C(=O)O)c(=O)c2c(N)c(F)c(NC3CCCCC3)cc21 |

For quick reference, copied from above:
| read-out | action | technique | concentration | with | inhibition | SMILES |
| --- | --- | --- | --- | --- | --- | --- |
| enzyme activity | inhibitor |  | 10 µM |  | 50% | NC(=O)[C@@H](O)C[C@H]1CCc2sc3ncnc(O[C@H]4CC[C@H](N5CCOCC5)CC4)c3c21 |
| enzyme activity | inhibitor |  | 1 µM |  | 10% | CN1CC[C@@H](COc2cnc(C#N)cc2-c2ccn3nc(NC(=O)C4CC4)cc3c2)C1 |
